Results collected from several papers.
A part holds a random share of what one study measured.
UniProt P11362, sequence (whole entry, looked up): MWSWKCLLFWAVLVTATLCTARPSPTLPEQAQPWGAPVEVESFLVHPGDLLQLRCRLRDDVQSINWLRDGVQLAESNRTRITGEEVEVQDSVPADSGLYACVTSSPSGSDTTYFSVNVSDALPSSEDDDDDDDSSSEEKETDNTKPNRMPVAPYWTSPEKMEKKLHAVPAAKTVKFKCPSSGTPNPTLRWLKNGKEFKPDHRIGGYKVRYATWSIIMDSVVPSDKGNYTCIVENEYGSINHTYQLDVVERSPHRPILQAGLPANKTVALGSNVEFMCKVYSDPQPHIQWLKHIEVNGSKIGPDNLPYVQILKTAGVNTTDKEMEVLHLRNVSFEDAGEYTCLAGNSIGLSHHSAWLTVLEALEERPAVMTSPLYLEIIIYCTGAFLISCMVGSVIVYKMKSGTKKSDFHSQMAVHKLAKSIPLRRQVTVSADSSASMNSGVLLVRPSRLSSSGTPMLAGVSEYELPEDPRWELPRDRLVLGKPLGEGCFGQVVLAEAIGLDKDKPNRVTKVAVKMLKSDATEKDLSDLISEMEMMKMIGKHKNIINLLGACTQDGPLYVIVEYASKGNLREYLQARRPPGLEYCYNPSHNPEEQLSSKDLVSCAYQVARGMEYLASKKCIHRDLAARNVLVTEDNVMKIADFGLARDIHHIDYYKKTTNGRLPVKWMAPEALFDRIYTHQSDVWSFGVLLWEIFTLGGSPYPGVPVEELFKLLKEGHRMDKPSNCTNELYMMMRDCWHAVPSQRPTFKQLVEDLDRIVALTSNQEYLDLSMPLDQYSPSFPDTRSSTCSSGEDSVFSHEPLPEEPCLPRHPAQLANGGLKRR
UniProt P52333, sequence (whole entry, looked up): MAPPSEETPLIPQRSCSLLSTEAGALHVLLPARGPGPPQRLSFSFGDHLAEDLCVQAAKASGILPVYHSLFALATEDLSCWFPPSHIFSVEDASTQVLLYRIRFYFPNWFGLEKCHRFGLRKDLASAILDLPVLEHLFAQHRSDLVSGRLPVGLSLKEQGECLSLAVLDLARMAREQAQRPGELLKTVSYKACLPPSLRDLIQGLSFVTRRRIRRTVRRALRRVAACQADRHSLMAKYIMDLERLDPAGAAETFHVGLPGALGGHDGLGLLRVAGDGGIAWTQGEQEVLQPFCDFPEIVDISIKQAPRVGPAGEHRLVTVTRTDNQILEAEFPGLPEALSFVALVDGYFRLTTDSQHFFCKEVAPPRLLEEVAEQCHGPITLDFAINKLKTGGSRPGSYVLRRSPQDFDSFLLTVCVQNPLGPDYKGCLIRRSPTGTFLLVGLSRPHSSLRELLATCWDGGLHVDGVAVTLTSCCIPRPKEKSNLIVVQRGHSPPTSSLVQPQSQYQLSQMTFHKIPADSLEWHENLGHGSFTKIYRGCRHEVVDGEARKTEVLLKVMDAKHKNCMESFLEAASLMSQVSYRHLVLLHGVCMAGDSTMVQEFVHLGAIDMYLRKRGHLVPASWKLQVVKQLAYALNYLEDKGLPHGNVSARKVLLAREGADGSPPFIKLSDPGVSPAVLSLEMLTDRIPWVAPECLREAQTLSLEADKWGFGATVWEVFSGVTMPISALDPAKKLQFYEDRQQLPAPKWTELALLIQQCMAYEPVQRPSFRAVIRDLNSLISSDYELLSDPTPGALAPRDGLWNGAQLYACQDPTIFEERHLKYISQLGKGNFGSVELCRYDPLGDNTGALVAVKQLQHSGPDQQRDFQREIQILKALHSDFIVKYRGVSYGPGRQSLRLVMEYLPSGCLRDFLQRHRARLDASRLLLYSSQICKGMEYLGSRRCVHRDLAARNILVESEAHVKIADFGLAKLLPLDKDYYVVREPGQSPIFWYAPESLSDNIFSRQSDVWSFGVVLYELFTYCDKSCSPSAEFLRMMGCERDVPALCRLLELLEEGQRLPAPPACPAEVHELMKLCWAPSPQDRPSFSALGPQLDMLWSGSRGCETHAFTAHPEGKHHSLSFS
UniProt P93022, sequence (whole entry, looked up): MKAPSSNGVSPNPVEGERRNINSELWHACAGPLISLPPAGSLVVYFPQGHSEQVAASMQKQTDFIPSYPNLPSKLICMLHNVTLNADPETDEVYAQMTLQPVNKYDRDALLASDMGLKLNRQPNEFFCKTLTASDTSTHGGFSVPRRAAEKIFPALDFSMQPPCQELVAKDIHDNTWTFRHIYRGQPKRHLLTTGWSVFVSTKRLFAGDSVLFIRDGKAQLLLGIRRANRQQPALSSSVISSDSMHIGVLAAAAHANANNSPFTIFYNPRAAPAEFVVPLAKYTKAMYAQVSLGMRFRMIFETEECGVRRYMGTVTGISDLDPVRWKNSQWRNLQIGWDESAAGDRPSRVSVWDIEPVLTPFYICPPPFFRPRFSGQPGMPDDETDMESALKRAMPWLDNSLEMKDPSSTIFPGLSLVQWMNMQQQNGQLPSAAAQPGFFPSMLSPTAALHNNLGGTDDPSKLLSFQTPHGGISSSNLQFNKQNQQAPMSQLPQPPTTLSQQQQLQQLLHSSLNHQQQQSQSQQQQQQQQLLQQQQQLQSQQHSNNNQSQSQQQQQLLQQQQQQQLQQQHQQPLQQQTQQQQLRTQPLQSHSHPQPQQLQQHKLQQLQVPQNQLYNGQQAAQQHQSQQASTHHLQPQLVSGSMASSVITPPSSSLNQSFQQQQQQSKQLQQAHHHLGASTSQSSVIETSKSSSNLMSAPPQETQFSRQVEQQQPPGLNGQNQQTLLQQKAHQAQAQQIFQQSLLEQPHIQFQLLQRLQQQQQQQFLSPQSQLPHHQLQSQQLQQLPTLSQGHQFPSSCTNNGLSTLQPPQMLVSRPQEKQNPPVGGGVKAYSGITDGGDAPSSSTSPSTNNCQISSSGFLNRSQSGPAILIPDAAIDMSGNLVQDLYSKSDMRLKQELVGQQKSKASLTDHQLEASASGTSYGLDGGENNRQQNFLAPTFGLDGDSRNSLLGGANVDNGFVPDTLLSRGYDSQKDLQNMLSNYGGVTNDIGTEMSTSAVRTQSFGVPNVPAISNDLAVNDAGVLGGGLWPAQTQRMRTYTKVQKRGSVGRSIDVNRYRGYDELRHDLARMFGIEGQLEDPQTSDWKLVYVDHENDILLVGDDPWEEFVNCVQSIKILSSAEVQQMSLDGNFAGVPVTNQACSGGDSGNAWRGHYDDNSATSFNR
UniProt P42684, sequence (whole entry, looked up): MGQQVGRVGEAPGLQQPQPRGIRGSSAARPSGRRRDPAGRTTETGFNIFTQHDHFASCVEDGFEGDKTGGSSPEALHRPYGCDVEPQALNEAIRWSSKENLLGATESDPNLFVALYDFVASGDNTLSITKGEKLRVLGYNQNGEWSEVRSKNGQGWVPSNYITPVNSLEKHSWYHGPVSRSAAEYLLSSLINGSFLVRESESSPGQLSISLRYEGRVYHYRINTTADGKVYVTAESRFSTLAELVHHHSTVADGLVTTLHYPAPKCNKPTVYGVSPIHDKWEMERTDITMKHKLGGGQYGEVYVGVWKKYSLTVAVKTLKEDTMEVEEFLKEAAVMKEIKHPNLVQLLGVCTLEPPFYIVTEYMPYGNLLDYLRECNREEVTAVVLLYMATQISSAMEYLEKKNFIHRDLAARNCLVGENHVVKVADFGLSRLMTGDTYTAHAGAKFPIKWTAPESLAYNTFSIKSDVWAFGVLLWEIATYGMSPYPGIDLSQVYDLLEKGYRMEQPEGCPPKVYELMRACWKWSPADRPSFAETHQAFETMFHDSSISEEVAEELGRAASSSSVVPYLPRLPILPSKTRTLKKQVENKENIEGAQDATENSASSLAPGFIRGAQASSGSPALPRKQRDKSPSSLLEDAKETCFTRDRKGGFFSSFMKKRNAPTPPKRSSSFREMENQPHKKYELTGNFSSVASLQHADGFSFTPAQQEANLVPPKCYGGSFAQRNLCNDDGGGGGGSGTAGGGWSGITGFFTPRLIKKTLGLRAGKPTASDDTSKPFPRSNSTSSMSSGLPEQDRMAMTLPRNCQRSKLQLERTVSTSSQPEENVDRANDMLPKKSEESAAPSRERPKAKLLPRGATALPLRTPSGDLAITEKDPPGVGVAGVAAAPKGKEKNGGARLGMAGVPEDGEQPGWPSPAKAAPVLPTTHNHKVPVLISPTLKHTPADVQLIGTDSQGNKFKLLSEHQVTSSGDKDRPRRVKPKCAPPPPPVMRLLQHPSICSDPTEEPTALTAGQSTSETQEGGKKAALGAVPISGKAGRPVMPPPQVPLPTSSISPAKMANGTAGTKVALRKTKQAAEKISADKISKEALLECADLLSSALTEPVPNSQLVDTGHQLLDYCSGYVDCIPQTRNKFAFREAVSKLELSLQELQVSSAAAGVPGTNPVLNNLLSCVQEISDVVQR
UniProt Q8RYC6, sequence (whole entry, looked up): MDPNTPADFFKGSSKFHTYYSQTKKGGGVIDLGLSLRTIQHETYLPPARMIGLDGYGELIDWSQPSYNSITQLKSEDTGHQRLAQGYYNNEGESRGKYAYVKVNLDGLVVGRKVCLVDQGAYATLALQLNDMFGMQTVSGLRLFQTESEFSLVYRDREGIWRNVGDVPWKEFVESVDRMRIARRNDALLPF
UniProt Q9FKM7, sequence (whole entry, looked up): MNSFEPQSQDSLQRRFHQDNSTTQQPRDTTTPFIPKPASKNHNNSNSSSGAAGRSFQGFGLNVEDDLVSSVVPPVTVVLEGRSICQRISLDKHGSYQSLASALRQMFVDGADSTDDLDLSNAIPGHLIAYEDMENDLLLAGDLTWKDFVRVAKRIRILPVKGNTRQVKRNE

Sample 1 — method: RNA Bind-n-Seq; molecule type: RNA; sample: in vitro; concentration: 20 nM; notes: 6-mer, flanks averaged, single round; added: 150 mM KCl; reference: input library; reading: higher = stronger binding; measurement: 6-mer enrichment (R)
Target: TAR DNA-binding protein 43, full length, His tag (TARDBP, Homo sapiens, UniProt Q13148, residues 1-414)
CCAACG: 0.763
UAUCUA: 0.54
AAGCGG: 1.71
GAACCC: 0.705
UCUCAA: 0.551
UGGUGG: 3.23
AACAGA: 0.709
AAGACC: 0.656

Sample 2 — read-out: enzyme activity; mode: inhibitor; concentration: 0.5 µM; reference: control; measurement: remaining activity
SMILES: NC(=O)c1ccc(N(C(N)=O)c2c(F)cccc2F)nc1-c1ccc(F)cc1F
MAP3K5 (Homo sapiens, UniProt Q99683): 102%
ABL2 (Homo sapiens, UniProt P42684): 100%
MST1R (Homo sapiens, UniProt Q04912): 90.1%
FGFR3 (Homo sapiens, UniProt P22607): 90.2%
MAPK3 (Homo sapiens, UniProt P27361): 95.2%
TAOK2 (Homo sapiens, UniProt Q9UL54): 98.7%
ULK2 (Homo sapiens, UniProt Q8IYT8): 101%
FGFR1 (Homo sapiens, UniProt P11362): 99%
EPHA3 (Homo sapiens, UniProt P29320): 97%
MAP2K2 (Homo sapiens, UniProt P36507): 92.3%
MERTK (Homo sapiens, UniProt Q12866): 114%
TBK1 (Homo sapiens, UniProt Q9UHD2): 106%
JAK3 (Homo sapiens, UniProt P52333): 95.7%
NEK1 (Homo sapiens, UniProt Q96PY6): 69.6%

Sample 3 — read-out: cell-free assay; method: competition with immobilised ligand; concentration: 1 µM; measurement: remaining binding
SMILES: CC1=C(C#N)[C@@H](c2ccc3[nH]nc(C)c3c2)C(C#N)=C(c2ccc(Cl)cc2)N1
CDK11B (Homo sapiens, UniProt P21127): 91.6%
BRAF (Homo sapiens, UniProt P15056): 100%
PKMYT1 (Homo sapiens, UniProt Q99640): 100%

Sample 4 — method: two-hybrid; reading: higher = firmer interaction; measurement: positive tests
Molecule: IAA7 (Arabidopsis thaliana, UniProt Q38825)
UniProt Q38825, sequence (whole entry, looked up): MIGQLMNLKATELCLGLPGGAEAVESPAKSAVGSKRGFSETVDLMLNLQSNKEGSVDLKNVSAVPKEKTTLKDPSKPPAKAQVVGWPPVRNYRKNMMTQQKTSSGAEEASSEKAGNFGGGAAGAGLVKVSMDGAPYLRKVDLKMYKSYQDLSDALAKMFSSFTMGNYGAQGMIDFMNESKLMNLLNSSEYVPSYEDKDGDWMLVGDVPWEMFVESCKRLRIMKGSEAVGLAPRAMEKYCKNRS
ARF4 660-788 (Arabidopsis thaliana, UniProt Q9ZTX9); reference: out of 4 tests: 3
IAA32 (Arabidopsis thaliana, UniProt Q8RYC6); reference: out of 4 tests: 3
IAA29 (Arabidopsis thaliana, UniProt Q93WC4); reference: out of 4 tests: 0
ARF1 538-665 (Arabidopsis thaliana, UniProt Q8L7G0); reference: out of 2 tests: 0
ARF12 500-593 (Arabidopsis thaliana, UniProt Q9XID4); reference: out of 4 tests: 1
ARF17 (Arabidopsis thaliana, UniProt Q84WU6); weak activation fusion; reference: out of 4 tests: 0
IAA33 (Arabidopsis thaliana, UniProt Q9FKM7); reference: out of 4 tests: 3
ARF7 1030-1164 (Arabidopsis thaliana, UniProt P93022); reference: out of 4 tests: 4
